Experimental data of several laboratories.
Lines come from different studies, so protocols differ. ± gives the spread as reported.
Fibroin-modulator-binding protein-1: Fibroin-modulator-binding protein-1 99-193 (Bombyx mori, UniProt Q5FBS0)
SPT15/TOA1/TOA2/SUA7 1-240; 1-286; 1-122; 1-345: SPT15/TOA1/TOA2/SUA7 1-240; 1-286; 1-122; 1-345 (Saccharomyces cerevisiae)
Chain of UniProt P42568 (whole entry, looked up): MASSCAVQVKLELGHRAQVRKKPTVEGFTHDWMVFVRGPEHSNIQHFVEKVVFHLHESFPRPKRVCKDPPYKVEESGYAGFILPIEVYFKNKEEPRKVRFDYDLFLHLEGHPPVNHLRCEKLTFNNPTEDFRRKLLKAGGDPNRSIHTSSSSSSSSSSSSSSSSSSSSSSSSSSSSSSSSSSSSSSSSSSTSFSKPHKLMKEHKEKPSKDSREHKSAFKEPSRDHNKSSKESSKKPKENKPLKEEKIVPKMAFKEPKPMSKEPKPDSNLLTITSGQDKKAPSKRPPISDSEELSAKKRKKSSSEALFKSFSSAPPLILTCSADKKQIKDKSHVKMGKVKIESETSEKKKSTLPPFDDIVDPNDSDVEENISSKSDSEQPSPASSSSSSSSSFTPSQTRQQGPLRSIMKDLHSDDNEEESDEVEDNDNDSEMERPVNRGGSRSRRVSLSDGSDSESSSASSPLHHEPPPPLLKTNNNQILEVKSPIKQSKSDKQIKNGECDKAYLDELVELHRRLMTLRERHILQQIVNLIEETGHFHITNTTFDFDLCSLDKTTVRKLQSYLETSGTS

Molecule | tested on | test | test system | setting | how to read | quantity | value
colistin | Klebsiella pneumoniae | broth microdilution | clinical isolate RKI-No_503/15 |  |  | MIC | 64 µg/mL
CTCACTCACTCA (dsDNA) | Fibroin-modulator-binding protein-1 | ITC | double-stranded DNA, one strand shown |  |  | Kd | 3570 ± 463 nM
AAAUGAGGCGCUGCAUGUGGCAGUCUGCCUUUCUUU (structured RNA) | MLLT3 1-140 (Homo sapiens, UniProt P42568) | competition with labeled RNA, fluorescence polarization | folded RNA |  |  | Ki | 21 ± 1 nM
GGGAGAACUUCGACCAGAAGUCUCCUAGUCCAUUUUGGCGCACGCGAAUACGGGAGACACUAUGUGCGCAUACAUGGAUCCUC (ssRNA; 2'-fluoro pyrimidines) | integrin alphaV/beta3 31-992/27-718 (Homo sapiens) | SPR | RNA | with: MnCl2 1 mM | higher = more binding | relative binding | 156 RU
CGTACGTACGTA (dsDNA) | Fibroin-modulator-binding protein-1 | ITC | double-stranded DNA, one strand shown |  |  | Kd | 3360 ± 412 nM
DNA 1 TGGGTGGGTAGGGTGGGTAGGGGAGGAT / DNA 2 ATCCTCCCCTA (DNA; intramolecular parallel G4, 5' overhang, 11-bp duplex) | REV1 330-833 R704Q (Homo sapiens, UniProt Q9UBZ9) | FP | folded DNA | KCl 100 mM |  | Kd | 4.3 ± 0.6 nM
DNA 1 CACTGGCCGTCTTACGGTCGCTCTGCTCGACG / DNA 2 CGACCGTAAGACGGCCAGTG (dsDNA; 20 bp, 3' 12 nt overhang) | RECQL 63-592 Q324A (Bos taurus, UniProt A0JN36) | fluorescence anisotropy | double-stranded DNA | with: Mg2+ 3 mM |  | Kd | 24.5 ± 2.9 nM
GGGAGAACUUCGACCAGAAGUCCACUCUCGCGCACAUAUACGCAAAACCCUACCUGCCUUAUGUGCGCAUACAUGGAUCCUC (ssRNA; 2'-fluoro pyrimidines) | integrin alphaV/beta3 31-992/27-718 (Homo sapiens) | SPR | RNA | with: MnCl2 1 mM | higher = more binding | relative binding | 15.4 RU
CTTGAAGGGGGGCTATAAAAGGGGGTGGGGGCGCGTCAAGTCAATCGGTCC (dsDNA; 5'-amino-C6 primer) | SPT15/TOA1/TOA2/SUA7 1-240; 1-286; 1-122; 1-345 | array | double-stranded DNA, one strand shown | TBP:TFIIA:TFIIB ternary complex |  | Kd | 1.98 ± 0.2 nM
Peginesatide | UT7/EPO | RT-qPCR, measured: CXCL2 |  | concentration not given, 90 min, normalized to HPRT1 | baseline: vehicle | mRNA level | 4.6 fold
GAAGGAAGGAAG (dsDNA) | Fibroin-modulator-binding protein-1 | ITC | double-stranded DNA, one strand shown |  |  | Kd | 5610 ± 529 nM
GSGAGQITKV | human SCRIB PDZ3-4 tandem (MBP fusion) | automated holdup | peptide, crude extract | concentration not given, uncorrected, unit not given | baseline: biotin control resin, higher = stronger binding | binding intensity | 0.0585
GGGAGAACUUCGACCAGAAGUUCCGGCCUACGCAACUUUUUAUCCCCUGCCUGGCCGUAAUUAUGUGCGCAUACAUGGAUCCUC (ssRNA; 2'-fluoro pyrimidines) | integrin alphaV/beta3 31-992/27-718 (Homo sapiens) | SPR | RNA | with: MnCl2 1 mM | higher = more binding | relative binding | 35.8 RU
GSGAGKETRV | human MAGI1-2/6 PDZ construct (MBP fusion) | surface plasmon resonance | peptide | concentration not given | higher = stronger binding | normalised SPR binding response | 38.9 normalised RU
ACGTACGTACGT (dsDNA) | Fibroin-modulator-binding protein-1 | ITC | double-stranded DNA, one strand shown |  |  | Kd | 4820 ± 833 nM
GAATTCCTAAAAAGTAATGTGGAGCTCCGTTCGTCTCAAGTCAATCGGTCC (dsDNA; 5'-amino-C6 primer) | SPT15/TOA1/TOA2/SUA7 1-240; 1-286; 1-122; 1-345 | array | double-stranded DNA, one strand shown | TBP:TFIIA:TFIIB ternary complex |  | Kd | 3.38 ± 0.7 nM
GGGAGAACUUCGACCAGAAGUAGAUGUCUUAACGCACAUUACGCAAACACACCUCCUGCCUAUGUGCGCAUACAUGGAUCCUC (ssRNA; 2'-fluoro pyrimidines) | integrin alphaV/beta3 31-992/27-718 (Homo sapiens) | SPR | RNA | with: MnCl2 1 mM | higher = more binding | relative binding | 88.5 RU
ACCGACCGACCG (dsDNA) | Fibroin-modulator-binding protein-1 | ITC | double-stranded DNA, one strand shown |  |  | Kd | 5020 ± 901 nM
GGGAGAACUUCGACCAGAAGGAAGACAAGCGCACACAACGGAUGACGGGAGAAACAAUGAUAUGUGCGCAUACAUGGAUCCUC (ssRNA; 2'-fluoro pyrimidines) | integrin alphaV/beta3 31-992/27-718 (Homo sapiens) | SPR | RNA | with: MnCl2 1 mM | higher = more binding | relative binding | 27.6 RU
ATTTTTTAGTCCTATATATACTCGCTCTGCACTTGTCAAGTCAATCGGTCC (dsDNA; 5'-amino-C6 primer) | SPT15/TOA1/TOA2/SUA7 1-240; 1-286; 1-122; 1-345 | array | double-stranded DNA, one strand shown | TBP:TFIIA:TFIIB ternary complex |  | Kd | 2.06 ± 0.89 nM
insulin degludec |  |  | human | subcutaneous, 0.4 IU/kg, 2 FC level, single dose, reference formulation |  | apparent clearance CL/F | 1.51 ± 0.2 L/h

Repeated from above:
Molecule | tested on | test | test system | setting | how to read | quantity | value
GGGAGAACUUCGACCAGAAGGAAGACAAGCGCACACAACGGAUGACGGGAGAAACAAUGAUAUGUGCGCAUACAUGGAUCCUC (ssRNA; 2'-fluoro pyrimidines) | integrin alphaV/beta3 31-992/27-718 (Homo sapiens) | SPR | RNA | with: MnCl2 1 mM | higher = more binding | relative binding | 27.6 RU
